Measured values collected from several papers.
Compare with care: the assays were run in different laboratories.
MAPK14: Mitogen-activated protein kinase 14 (MAPK14, Homo sapiens, UniProt Q16539)
Chain of UniProt Q16539 (whole entry, unmodified, looked up): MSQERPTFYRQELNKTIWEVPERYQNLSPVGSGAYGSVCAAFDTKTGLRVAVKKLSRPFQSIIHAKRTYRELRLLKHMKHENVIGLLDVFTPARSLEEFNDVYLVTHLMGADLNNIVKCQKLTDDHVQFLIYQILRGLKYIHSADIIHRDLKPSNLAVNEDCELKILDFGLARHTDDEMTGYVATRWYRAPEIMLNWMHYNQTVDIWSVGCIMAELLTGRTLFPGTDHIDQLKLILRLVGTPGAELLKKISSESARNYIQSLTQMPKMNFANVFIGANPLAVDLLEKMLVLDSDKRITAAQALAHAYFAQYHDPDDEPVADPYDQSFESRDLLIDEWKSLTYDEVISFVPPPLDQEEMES

CCCn1nc(C)c(-c2cc(C(=O)N3CCc4nc5cc(-c6ccccc6)[nH]n5c(=O)c4C3)[nH]n2)c1C — efficacy (MAPK14; kinase activity, LanthaScreen TR-FRET; SB202190 287.5 µM as -100%; baseline: DMSO control): -48.1%
[2H]c1cc(C)c(NC(=O)c2cnc(Nc3cc(N4CCC(O)CC4)nc(C)n3)s2)c(Cl)c1 — inhibition (MAPK14; 0.001 µM): < 50%
Cc1cc(C)nc(NC(=S)N2CCN(Cc3ccc(C(F)(F)F)cc3)CC2)c1 — kinase activity (MAPK14; inhibitor, ADP-Glo; concentration not given): no effect
CCc1ccc(NC(=O)CSc2nc(-c3cccc(OC)c3)nc3c2Cc2c(CO)cnc(C)c2O3)cc1 — inhibition (MAPK14; enzyme activity, inhibitor, TR-FRET; up to 30 µM): no inhibition
CNc1cccc2cc(C(=O)Nc3ccc(C(=O)O)cc3)c(=O)[nH]c12 — inhibition (MAPK14; kinase activity, inhibitor; 10 µM): -2.4%
O=C(NC1CCC1)c1ccc2nc(-c3cccc(NS(=O)(=O)NCCN4CCCCC4)c3)cn2c1 — remaining activity (MAPK14; enzyme activity; 10 µM): 100%
COc1cc(F)ccc1-c1ncnc(Nc2cccc(C[S@](C)(=N)=O)c2)n1 — remaining activity (MAPK14; kinase activity; 10 µM, together with: 10 µM ATP): 97%
c1ccc(Cn2cc(-c3ccnc4ccccc34)c(-c3ccccn3)n2)cc1 — selectivity reduction (MAPK14; enzyme activity; concentration not given; baseline: LY selectivity Yck2 over MAPK14): 3 fold
Oc1ccc(-c2nc(-c3ccncc3)c(-c3ccc(F)cc3)[nH]2)cc1 — normalized luminescence (MAPK14; kinase activity, Kinase-Glo; concentration not given): 1.06
Cc1noc(C)c1Cc1ccc(C(=O)N2CCc3c(nc4cc(-c5ccccc5)[nH]n4c3=O)C2)o1 — efficacy (MAPK14; kinase activity, LanthaScreen TR-FRET; SB202190 287.5 µM as -100%; baseline: DMSO control): -89.5%
O=C1NC(=O)/C(=C/c2ccc(-c3ccc(F)cc3O)o2)S1 — remaining activity (MAPK14; enzyme activity; 10 µM): 86%
C=CC(=O)N1CCC(C(=O)NCC(=O)N2CCN(c3nc(-c4cnc(N)nc4C(F)F)nc(N4CCOCC4)n3)CC2)CC1 — remaining binding (MAPK14; KINOMEscan; 1 µM): 100%
O=C(Nc1nc2n(n1)C(c1ccc(F)cc1)C=C(c1ccccc1)N2)c1cccc([N+](=O)[O-])c1 (stereo not drawn) — inhibition (MAPK14; enzyme activity, inhibitor, TR-FRET; up to 30 µM): no inhibition
CCCOc1ccc(OC)c(F)c1C(=O)c1ccc(C(=O)N[C@@H]2CNC[C@H]2NC(=O)c2ccc3[nH]ncc3c2)cc1 — remaining activity (MAPK14; enzyme activity; 10 µM): 110%
COc1cc(-c2cncc3c2CN(C)Cc2cc(N4CCNCC4)ccc2-3)cc(OC)c1OC — remaining activity (MAPK14 (Homo sapiens, UniProt Q16539, T106M); kinase activity; 1 µM, together with: ATP 10 µM; baseline: DMSO control): 93%

A few entries again:
O=C(Nc1nc2n(n1)C(c1ccc(F)cc1)C=C(c1ccccc1)N2)c1cccc([N+](=O)[O-])c1 (stereo not drawn) — inhibition (MAPK14; enzyme activity, inhibitor, TR-FRET; up to 30 µM): no inhibition
[2H]c1cc(C)c(NC(=O)c2cnc(Nc3cc(N4CCC(O)CC4)nc(C)n3)s2)c(Cl)c1 — inhibition (MAPK14; 0.001 µM): < 50%
